Results from different studies.
Each numbered part is a random draw from the data of one study; scales do not carry over between parts. Changes are numbered by the printed parent chain.

Sample 1 — target: CCNB1, cyclin fold, Cln2 fusion (human); method: yeast growth competition, sequencing; matrix: yeast; notes: strong parent motif; reference: not given; reading: higher = stronger binding
Parent: PKN2 docking peptide (human); VSAVQKLDFSDTM; partner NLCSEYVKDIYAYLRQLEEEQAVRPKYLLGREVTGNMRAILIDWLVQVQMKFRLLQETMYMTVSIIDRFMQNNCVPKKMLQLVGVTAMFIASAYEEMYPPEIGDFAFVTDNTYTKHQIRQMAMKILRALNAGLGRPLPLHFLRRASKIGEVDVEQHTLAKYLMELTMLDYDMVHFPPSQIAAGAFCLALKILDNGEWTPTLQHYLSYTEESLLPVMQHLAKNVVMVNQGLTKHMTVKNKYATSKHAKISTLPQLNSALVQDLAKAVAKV
| Substitution | normalised enrichment score |
| --- | --- |
| K6I | 0.397 |
| S10M | 1.16 |
| S2M | 2.16 |
| F9E | 0.238 |
| K6H | 1.48 |
| V4W | 0.344 |
| K6A | 1.06 |
| T12N | 1.71 |
| L7V | -0.171 |

Sample 2 — method: universal PBM; form: double-stranded DNA, one strand shown; matrix: in vitro; tested at: 600 nM; reading: higher = stronger binding
Target: Sal-like protein 4, full length isoform A (SALL4, Homo sapiens, UniProt Q9UJQ4, residues 1-1053)
UniProt Q9UJQ4, sequence (whole entry, looked up): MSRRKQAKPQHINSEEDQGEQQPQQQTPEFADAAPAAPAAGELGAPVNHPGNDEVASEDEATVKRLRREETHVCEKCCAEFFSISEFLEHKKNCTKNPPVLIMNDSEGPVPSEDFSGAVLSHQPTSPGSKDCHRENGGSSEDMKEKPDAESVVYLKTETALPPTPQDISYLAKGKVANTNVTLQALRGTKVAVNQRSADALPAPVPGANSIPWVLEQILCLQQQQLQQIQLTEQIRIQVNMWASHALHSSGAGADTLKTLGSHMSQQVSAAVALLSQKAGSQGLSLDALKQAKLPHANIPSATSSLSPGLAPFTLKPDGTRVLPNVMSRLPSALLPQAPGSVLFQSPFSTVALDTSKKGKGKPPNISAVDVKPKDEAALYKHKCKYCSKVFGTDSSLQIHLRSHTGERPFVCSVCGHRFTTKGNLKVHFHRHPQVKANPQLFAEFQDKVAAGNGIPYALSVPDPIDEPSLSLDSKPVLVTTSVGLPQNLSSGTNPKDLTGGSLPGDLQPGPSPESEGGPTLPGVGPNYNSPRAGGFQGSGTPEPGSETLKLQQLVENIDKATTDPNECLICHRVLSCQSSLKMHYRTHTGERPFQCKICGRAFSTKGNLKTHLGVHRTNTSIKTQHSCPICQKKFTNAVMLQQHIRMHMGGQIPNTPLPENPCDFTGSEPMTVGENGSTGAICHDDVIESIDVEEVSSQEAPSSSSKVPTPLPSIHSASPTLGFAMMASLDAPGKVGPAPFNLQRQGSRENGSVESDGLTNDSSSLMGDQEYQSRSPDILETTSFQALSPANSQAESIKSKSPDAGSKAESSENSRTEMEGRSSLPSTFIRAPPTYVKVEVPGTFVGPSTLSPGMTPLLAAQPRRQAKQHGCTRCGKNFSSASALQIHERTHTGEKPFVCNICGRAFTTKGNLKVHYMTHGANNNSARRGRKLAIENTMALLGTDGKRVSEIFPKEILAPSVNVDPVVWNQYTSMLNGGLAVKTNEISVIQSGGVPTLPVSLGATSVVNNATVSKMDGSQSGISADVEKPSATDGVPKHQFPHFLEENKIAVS
Notes: 8-mer, flanks averaged, mean of replicates
| Sequence | E-score |
| --- | --- |
| AACGAATC | 0.184 |
| GTAGCGAA | 0.026 |
| CCGTAACA | 0.122 |
| GAGTAGTA | 0.121 |
| CGACGCTA | -0.123 |
| AGACTAAC | 0.0234 |
| CGTACAAG | 0.0821 |
| CTTAGACC | 0.0211 |
| CAGTAGAG | -0.0971 |
| AATTCCGC | -0.0546 |
| CCGTGTCC | -0.297 |

Sample 3 — method: DHFR PCA, deep sequencing; matrix: yeast; together with: (+)-ABA 0.032 µM; reference: wild-type fitted maximum; reading: higher = stronger binding
Target: ABI1, truncated, D143A, DHFR fusion (Arabidopsis thaliana)
Notes: methotrexate growth selection, single substitutions
Parent: PYL1, truncated, DHFR fusion (Arabidopsis thaliana); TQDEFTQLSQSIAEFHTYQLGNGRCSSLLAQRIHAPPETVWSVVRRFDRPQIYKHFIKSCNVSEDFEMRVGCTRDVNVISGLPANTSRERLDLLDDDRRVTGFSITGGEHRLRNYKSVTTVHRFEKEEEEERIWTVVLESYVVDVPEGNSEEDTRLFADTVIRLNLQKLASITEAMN; partner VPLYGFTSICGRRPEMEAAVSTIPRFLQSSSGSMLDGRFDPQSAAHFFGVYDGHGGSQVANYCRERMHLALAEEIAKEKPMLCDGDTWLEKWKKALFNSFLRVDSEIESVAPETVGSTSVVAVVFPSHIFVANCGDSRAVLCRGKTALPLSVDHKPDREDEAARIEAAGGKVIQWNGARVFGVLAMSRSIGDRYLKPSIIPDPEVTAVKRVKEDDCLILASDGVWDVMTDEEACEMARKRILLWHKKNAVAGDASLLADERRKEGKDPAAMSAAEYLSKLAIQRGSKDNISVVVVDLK
| Substitution | relative binding score [%] |
| --- | --- |
| I172Y | -6.9 |
| E152N | -0.352 |
| Y141Q | -2.21 |
| G71L | -0.0861 |
| G71C | -1.24 |
| V62M | -0.158 |
| T160H | 4.81 |

Single results of other studies
| Substance | target | assay | system | setting | how to read | quantity | result |
| --- | --- | --- | --- | --- | --- | --- | --- |
| PhoQ, residues 284 288 289 292 302 303 SIHLQL | PhoP, residues 12 14 15 18 19 NMSFL (Escherichia coli, UniProt P23836) | Sort-seq, measured: YFP reporter | E. coli | PhoQ-PhoP variant library, together with: 10 µM Mg2+ | reference: high Mg2+ state, higher = stronger signaling | fold induction | 15.4 |
